Published values from different studies.
A part holds a random share of what one study measured.

Sample 1 — method: RNA Bind-n-Seq; molecule type: RNA; sample: in vitro; concentration: 365 nM; baseline: no-protein control; direction: higher = stronger binding; endpoint: RBNS enrichment (R)
Target: RNA binding protein fox-1 homolog 2, RRM domain, GST-SBP tag (RBFOX2, Homo sapiens, UniProt O43251-10, residues 100-194)
Notes: natural RNA segment, single round, ends assumed
All sequences stand within: GGGAGUUCUACAGUCCGACGAUC … UGGAAUUCUCGGGUGCCAA
Residues (chain): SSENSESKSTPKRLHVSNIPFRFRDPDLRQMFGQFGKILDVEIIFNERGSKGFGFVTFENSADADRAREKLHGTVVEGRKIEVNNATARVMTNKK
ACUUACAUUCAAAGGGGAACAGAAAUCAUUCUAAGCAGGAAAAUACUUCCACUUUUUUUUUUUCAAGUAUCUCUCUAAUAACUAAAUGCCACUUAUUUGCAUUCUCCUUG: 0.436
UCUCUGUGGCAGUUUCAUAUUUGCUAAGACGAAUUUGCUCAUUAAACAUUUUGUUGUAUUUUACUUUAUGGAGCGGCUGUGUGUCCAGUAUGUCCGACCCUCUUCCUCGG: 0.483
CCUGGUCCUGCCCCACUUUCCCACUCACCUUUCUCCACUGGGUGCCAAGUCCUAGCUCCUCCUCCUGGGCUAUAUUCCUGACAAAAGUUCCAUAUAGACACCAAGGAGGC: 0.739
UCUUUCUUACGAGUUUGCCGUUCUCACUUCUGUGGGCUCCUAUACCUUGAGUGGGAUGAGUCUUAGUGGGAAACAGUGCCGUCCGAGGUGGGAUGCGAUGAGAAGAUGUG: 0.452
UUGUAAAUAAAAUCUUAACAUUUUGGGUCUGUUUUUUCAUGCUUUGCUUUUUAAUUAUUAUUAUUAUUUUUUUUACAUUAGGACAUUUUAUGUGACAACUGCCAAAAAAG: 1.16
GUGUUUGCUCUUUUCCAUGCCCAUGCAACCCAGAUUGGGGUGGAGCAGGAAGGAGCUCUUUUCUGUUCCCAAGCCUCAGAACUCUUGAGCUGUGGCUUACUUGCUGUCUU: 0.268
AAAUAGUAUUUGAAAUAAUACCAGAAAACGGGGACCACAGUACUGUUCGAUGUUUUCAAGUGAGAAAGAGGAAUGUAGUAUGCUUUGGCAUAGUUUGGGAGUGGAGAAUA: 0.939
AACUUCAAAGCUUUAUUCUGUCUGCCUGAGAGGAUCCAUGGAAGAUGAUUCUCCCAAAAAGCAGAAAAAGAAAUGUCAGGUUAGAAGGACCCAAGUUCUAGGUGCACACU: 0.407
CAGGCUGGCAGCUCUCCAGUCAGGAGGCAUAGUUUUUACUGAACAAUCAAAGCACUUGGACUCUUGCUCUUUCUACUCUGAACUAAUAAAUCUGUUGCCAAGCUGGCUAG: 0.246
AGUGUACACUACUGUAUAAUUUAUGUUUACCAUAUGAGUCUUGAAACACUACAGAUAUUUUGAAUAUCAGUCAUGAUGGCAAUUUCUGUAUAAAAGAGCCUUAAAUGGAA: 0.276
UCCUCUGUCUCACAGGGCCCCUCUCCCUUCUGUUCAGUAAACAAACUGAAGCCAAAAAUGAAGCCGUGGCCAAGCGUGACCCAGAGAUGGGGUGUCCUGGCCCUUAGUGA: 0.324
CAAGAUAUUUUAAAAUCUGUCACGUAGAACUUGGAUGUACCUGCCCCCAAUCCAUGAACCAAGACCAUUGAAUUCUUGGUUGAGGAAACAAACAUGACCCUAAAUCUUGA: 0.403

Sample 2 — method: RNA Bind-n-Seq; molecule type: RNA; sample: in vitro; concentration: not given; baseline: input RNA pool; direction: higher = stronger binding; endpoint: bound/input enrichment
Target: RING finger protein unkempt homolog, zinc fingers 1-6, GST-SBP tag (UNK, Homo sapiens, UniProt Q9C0B0, residues 30-357)
Notes: RNA with constant flanks, human-mouse chimeric sites, ends assumed
All sequences stand within: GGGAGUUCUACAGUCCGACGAUC … CAACAGAGGAUUGAGCAUCA
Residues (chain): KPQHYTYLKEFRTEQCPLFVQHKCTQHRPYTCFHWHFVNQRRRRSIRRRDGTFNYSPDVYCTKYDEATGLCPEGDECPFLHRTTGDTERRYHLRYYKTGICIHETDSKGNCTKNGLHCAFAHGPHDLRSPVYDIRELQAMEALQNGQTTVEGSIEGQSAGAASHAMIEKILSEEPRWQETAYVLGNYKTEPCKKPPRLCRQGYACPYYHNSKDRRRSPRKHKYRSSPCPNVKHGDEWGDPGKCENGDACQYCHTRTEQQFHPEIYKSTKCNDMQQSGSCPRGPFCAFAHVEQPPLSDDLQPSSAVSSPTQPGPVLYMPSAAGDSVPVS
AACAUUUUGUCAAAUUGUUAUGUUCCUGUGAAACAAGUGAACACUCUUCAUAUACUAAUCUGCUUGUACAUCUGUAUGAUAGAGAAAUGUAAAUAUGUUAAUCCAAGCAAUGUGUCACUU: 0.233 ratio
CGCUGGCGUUGAACUGUGGACUCUGAUGGCCUCCAUCUCUCAGGCACGUGUGCCUUCUCUUAGUCCCUGUUUUCGGGUCACAAAGCUUCUCAGUACUGUGGUUUGAAAGCACCAGCUUUG: 0.145 ratio
UGACAAGGGCACUGCAGAGCCAUGCCUUUCCUUGACAUCCAGAAAAGGCUGGGCAUCAGCCUGGACCGAUGGUUGACGUUCCUAAGCGCAGAACAGCCCUAUAAGAACGCCGCUCGGUGC: 0.0497 ratio
UCAUUUUUCUCUUUUCUUUCUUUCCUUUAGGAAAAGCAGAUUAGACUGGUUGUAAGAAAAAUAGAAGCCAUGUUUCGAAGACCUGUGUUACAGGUAUUUCGUCAGUUUGUAAGACAUGAG: 0.778 ratio
UGGCGCCUGCGCUCCCCACUCGUGUUUUUAAGUGUAUUUUUAUAAGAUACAUGUAUUUACAAUUGAGCUUUUGUUACAUAAUGCUGAAAACAUCUCUGAGAUUAUGAAAAAUGUUUCAAU: 0.0882 ratio
CACACACUCUUCUGUGGCACCCUCAUUUUGCAGGCCCGGGCCUAUGUGGGACCGCACGUCCUGGCAGUGGUGACCCGCACAGGGUUCUGCACGGCAAAAGGGGGCCUGGUGAGCUCCAUC: 0.106 ratio
UUACCCGAGAACGAGGAUGAAUUGGAGAGCACCAACAGGCGCUACACCAAGAGAGACUGCAGCACUUUCCUCAGAACUAGUGAGACGGGCAUCGUGGACCAGGUCAUGGUCACUCUCAAC: 0.183 ratio
GAAUCCUACUCAGGCGGAUUUUGCAACCUGAAUGCAAAGUAGCAAUUAUCUUAGUCACAGUAGGGUAGUUUUGGGGCUCUGUGGCCAGGGUUUUAUUCACAUGCAGGUUUGGAAAAUGUA: 1.91 ratio
GCCACCAGAUCCCAGAAACAUGACCCUUGCUGCCUACAAAGAGAAGAUGAAGGAACUCCCGCUGGUGUCCUUGUUCUGCUCCUGCUUCUUGUCUGAUCCCCUGAAUAAGUCGUCCUACAA: 0.367 ratio
CAGUCCCGCGACAGCGUUGCAGGACGAUGUGAACAAAUCGAAGACAUGGACCCUCUAUUGUAGUUCUUGAUUCUCGAAAUGUGCUAUUAUUGUUUGUCUUUUUUUUUUUUUUUUUAAAGA: 1.51 ratio
GAAUCCUACUCAGGCGGAUUUUGCAACACCAAGCUCACAGCAGCAGCAUCUUAGUCACAGUUAGGUAGUUUUGGGGCUCUGUGGCCAGGGUUUUAUUCACAUGCAGGUUUUGAAAAUGUA: 2.64 ratio

Sample 3 — method: protein-binding microarray; molecule type: double-stranded DNA, one strand shown; sample: in vitro; concentration: 940 nM top; notes: 60-bp whole probe; together with: salmon DNA 0.4 mg/ml; baseline: random background probes; direction: higher = stronger binding; endpoint: fitted relative affinity; all sequences stand within: GCCTAGCAC … GTCTTGATTCGCTTGACGCTGCTG
Target: Interferon regulatory factor 5, full length, phosphomimetic (IRF5, Homo sapiens, UniProt Q13568-2, residues 1-514, S451D/S453D/S456D/S462D)
TTAGGTATAGGGTTTCGGTTAGTGCTA: 4.67 z-score
GGTTTTTTTTTAATTGAAATGTGCTAG: 0.564 z-score
GACGGTCTAGGTATCGGGACGTGCTAG: 0.868 z-score
GACGACTCCAGTTTCGAGACGTGCTAG: 4.29 z-score
GACGGTATCGACACTGGTGACGTGCTA: 3.28 z-score
GAGGGTCTCCTTATCCTGACGTGCTAG: 0.0798 z-score
TCAGCTTTGACTCTTTCACTGTGCTAG: 0.377 z-score
GACGATATGGGGACTGGAGACGTGCTA: -0.346 z-score
TTAGGTTTCGGTTCCGTTTAGTGCTAG: 15.5 z-score
GACGGTTCCGGTATCGGGACGTGCTAG: 4.28 z-score
GACGATATCAGTTACGAGACGTGCTAG: 0.0421 z-score
GCCGGTTCCGGTTTCGGGACGTGCTAG: 6.27 z-score
TTAGGTATCGGTTATCGGTTAGTGCTA: 9.27 z-score
GTAGATATCGGGACTGGATTAGTGCTA: -0.25 z-score
TTAGGTATCTGTTTCGGTTAGTGCTAG: 6.36 z-score
GACGGTTTCGGTCCCGGGACGTGCTAG: 13.6 z-score
TTAGGCTTCGGGTTTCGGTTAGTGCTA: 5.77 z-score
TTAGGTATCCAACTGCTTTAGTGCTAG: -0.15 z-score
GACGGACTGGTTTTCCTGACGTGCTAG: -0.0465 z-score
TTAGGATTCGACTATCGGTTAGTGCTA: 0.842 z-score
GACCGTTTCGGTTCCGGGACGTGCTAG: 7.56 z-score
GACGTTTTCAGTATCGAGACGTGCTAG: 3.01 z-score
CTAGGTTTCCTTATCCTTTAGTGCTAG: 1.19 z-score
CATCATTGCCTGTTTTTCCCCGTGCTA: 1.02 z-score
TCAAATATTTACCTCTCACTGTGCTAG: 0.78 z-score

Sample 4 — method: protein binding microarray; molecule type: double-stranded DNA, one strand shown; sample: in vitro; concentration: not given; baseline: not given; direction: higher = stronger binding; endpoint: E-score
Target: Histone acetyltransferase KAT6A, both winged helices, GST fusion (KAT6A, Homo sapiens, UniProt Q92794, residues 1-181)
Notes: 8-mer, flanks averaged, mean of 2 arrays, mostly near background
Residues (chain): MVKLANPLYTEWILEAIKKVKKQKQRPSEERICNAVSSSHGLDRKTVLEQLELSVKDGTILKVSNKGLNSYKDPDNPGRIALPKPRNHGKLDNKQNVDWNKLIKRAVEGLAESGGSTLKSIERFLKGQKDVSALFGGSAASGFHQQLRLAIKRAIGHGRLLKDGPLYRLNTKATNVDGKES
ATAACAGC: 0.0223
GATAATAA: -0.0671
GAACAAAA: 0.0488
AATGAGAC: -0.181
AAAGTCTG: -0.185
CCACCCGC: 0.223
GCACGAGA: 0.0354
GCCTCAAC: -0.165
CACCAATC: -0.11
GGAGGGTA: -0.0284
CTTCAAAA: -0.189
GAGCTATA: -0.214
CGGGCGTC: 0.281
ACAAACCG: 0.126
AGAGTCCG: 0.0807
CCTGCTCC: 0.0172
AGCTAGTG: -0.144
ATTCCGGG: 0.0648
CCCTGACC: -0.0127
AATTTCCG: 0.157
AACGATAT: -0.0463
AGGGCAGA: -0.173
GCTTTGTA: -0.0385
AAGTACGC: 0.155
AAAAACAG: -0.0464

Repeated from above (sample 4):
AGGGCAGA: -0.173
GAGCTATA: -0.214
GGAGGGTA: -0.0284
GCACGAGA: 0.0354
CCTGCTCC: 0.0172
AAAGTCTG: -0.185
GATAATAA: -0.0671
